Measured values of several laboratories.
Protocols differ between the studies behind these lines.
Organism: Acinetobacter baumannii

SMILES | assay | test system | conditions | MIC
C#CCNC(=O)[C@H]1NC(=O)[C@H]2NC(=O)[C@H](NC(=O)[C@@H]3NC(=O)[C@H](CC(N)=O)NC(=O)[C@H](NC(=O)[C@@H](CC(C)C)NC)[C@H](O)c4ccc(c(Cl)c4)Oc4cc3cc(c4O[C@@H]3O[C@H](CO)[C@@H](O)[C@H](O)[C@H]3O[C@H]3C[C@](C)(N)[C@H](O)[C@H](C)O3)Oc3ccc(cc3Cl)[C@H]2O)c2ccc(O)c(c2)-c2c(O)cc(O)cc21 | broth microdilution | ATCC 17978, cation-adjusted Mueller-Hinton broth | 18 to 20 h, 37 °C, 0.002% polysorbate 80 | 128 µg/mL
CC[C@H]1OC(=O)[C@H](C)[C@@H](OC(=O)Cc2ccccc2[N+](=O)[O-])[C@H](C)[C@@H](O[C@@H]2O[C@H](C)C[C@H](N(C)C)[C@H]2O)[C@](C)(OC)C[C@@H](C)C(=O)[C@H](C)[C@@H](O)[C@]1(C)O | microbial growth | ATCC19606 |  | > 32 µg/mL
CCCCCCCC(=O)N[C@@H](C)C(=O)N[C@H](C(=O)N[C@@H](CCN)C(=O)N[C@H]1CCNC(=O)[C@H]([C@@H](C)O)NC(=O)[C@H](CCN)NC(=O)[C@H](CCN)NC(=O)[C@H](CC(C)C)NC(=O)[C@@H](Cc2ccccc2)NC(=O)[C@H](CCN)NC1=O)[C@@H](C)O | broth microdilution | ATCC 19606 | 20 h, 37 °C | 512 µg/mL
COc1ccc(O)c(/C=N/[C@@H]2CCCC[C@@H]2/N=C/c2c(O)ccc3ccc(OC)cc23)c1 | bacterial growth, broth microdilution | carbapenem-resistant clinical isolate |  | > 40 µM
COc1cc(C(=O)Nc2ccc(C(=O)O)c(O)c2OC)ccc1NC(=O)c1ccc(NC(=O)[C@H](Cc2c[nH]nn2)NC(=O)c2ccc(NC(=O)/C(C)=C/c3ccc(O)cc3)cc2)cc1 | broth microdilution | ciprofloxacin-resistant |  | 8 µg/mL
CCCCCCCCCC[N+](C)(C)CCCCOc1cc(OCCCC[N+](C)(C)CCCCCCCCCC)cc(OCCCC[N+](C)(C)CCCCCCCCCC)c1.[Br-].[Br-].[Br-] |  | ATCC 17978 |  | 1 µM
C=CCO/N=C(\C(=O)N[C@@H]1C(=O)N(S(=O)(=O)O)[C@H]1C)c1csc(N)n1 | agar dilution | ATCC 19606 |  | 8 µg/mL
CCCCCCCC(=O)N[C@@H](CCN)C(=O)N[C@H](C(=O)N[C@@H](CN)C(=O)N[C@H]1CCNC(=O)[C@H]([C@@H](C)O)NC(=O)[C@H](CCCN)NC(=O)[C@H](CCN)NC(=O)[C@H]([C@@H](C)O)NC(=O)[C@@H](CC(C)C)NC(=O)[C@H](CCN)NC1=O)[C@@H](C)O |  | ATCC 19606, CAMHB | 20 h, 37 °C | 16 µg/mL
CN[C@H](CC(C)C)C(=O)N[C@H]1C(=O)N[C@@H](CC(N)=O)C(=O)N[C@H]2C(=O)N[C@H]3C(=O)N[C@H](C(=O)N[C@H](C(=O)NCC(N)=O)c4cc(O)cc(O)c4-c4cc3ccc4O)[C@H](O)c3ccc(c(Cl)c3)Oc3cc2cc(c3O[C@@H]2O[C@H](CO)[C@@H](O)[C@H](O)[C@H]2O[C@H]2C[C@](C)(NCc3ccc(OCc4cn(CC(=O)N[C@H](C(=O)N[C@@H](CCN)C(=O)N[C@H]5CCNC(=O)[C@H]([C@@H](C)O)NC(=O)[C@H](CCN)NC(=O)[C@H](CCN)NC(=O)[C@H](CC(C)C)NC(=O)[C@@H](CC(C)C)NC(=O)[C@H](CCN)NC5=O)[C@@H](C)O)nn4)c(OC)c3)[C@H](O)[C@H](C)O2)Oc2ccc(cc2Cl)[C@H]1O | broth microdilution | BAA-747, cation-adjusted Mueller-Hinton broth | 18 to 20 h, 37 °C, 0.002% polysorbate 80 | 16 µg/mL
CCCCCCCC(=O)N[C@@H](CN)C(=O)N[C@H](C(=O)N[C@@H](CN)C(=O)N[C@H]1CCNC(=O)[C@H]([C@@H](C)O)NC(=O)[C@H](CCN)NC(=O)[C@H](CCN)NC(=O)[C@H]([C@@H](C)O)NC(=O)[C@@H](CC(C)C)NC(=O)[C@H](CCN)NC1=O)[C@@H](C)O |  | ATCC 19606, CAMHB | 20 h, 37 °C | 0.5 µg/mL
CC1(C)[C@H](NC(=O)/C(=N\OCc2c(Cl)cccc2Cl)c2csc(N)n2)C(=O)N1OS(=O)(=O)O | agar dilution | ATCC 19606 |  | > 64 µg/mL
CCCCCCCC[N+](C)(C)CCCCCCCCOc1cc(OCCCCCCCC[N+](C)(C)CCCCCCCC)cc(OCCCCCCCC[N+](C)(C)CCCCCCCC)c1.[Br-].[Br-].[Br-] |  | ATCC 17978 |  | 2 µM
CC[C@H](C)[C@H](NC(=O)[C@@H](CCCNC(=N)N)NC(=O)[C@H](CCCNC(=N)N)NC(=O)[C@@H]1CCCN1C(=O)[C@@H]1CCCN1C(=O)[C@H](CCCCN)NC(=O)[C@@H]1CCCN1C(=O)[C@H](CCCNC(=N)N)NC(=O)[C@@H]1CCCN1C(=O)[C@H](CC(C)C)NC(=O)[C@H](Cc1ccc(O)cc1)NC(=O)[C@@H]1CCCN1C(=O)[C@@H]1CCCN1C(=O)[C@H](CCCCN)NC(=O)[C@H](CC(=O)O)NC(=O)[C@@H](N)C(C)C)C(=O)N[C@@H](Cc1ccc(O)cc1)C(=O)N[C@@H](CC(N)=O)C(=O)N[C@H](CCCNC(=N)N)C(N)=O | broth microdilution | DSM 30008 | 18 h, 37 °C, 25% MHB2 | 64 µg/mL
CCCCCCCC(=O)N[C@@H](CCN)C(=O)N[C@H](C(=O)N[C@@H](CCN)C(=O)N[C@H]1CCNC(=O)[C@H]([C@@H](C)O)NC(=O)[C@H](CCN)NC(=O)[C@H](C)NC(=O)[C@H](CC(C)C)NC(=O)[C@@H](Cc2ccccc2)NC(=O)[C@H](CCN)NC1=O)[C@@H](C)O | broth microdilution | ATCC 17978 | 20 h, 37 °C | 8 µg/mL
COc1cc(C(=O)O)ccc1NC(=O)c1ccc(NC(=O)c2ccc(NC(=O)[C@H](Cc3c[nH]nn3)NC(=O)c3ccc(NC(=O)/C(C)=C/c4ccc(O)cc4)cc3)cc2)c(OC)c1 | broth microdilution | ciprofloxacin-resistant |  | 16 µg/mL
CCCCCCCCn1cc[n+](CCCCCCOc2cc(OCCCCCC[n+]3ccn(CCCCCCCC)c3)cc(OCCCCCC[n+]3ccn(CCCCCCCC)c3)c2)c1.[Br-].[Br-].[Br-] |  | ATCC 17978 |  | 1 µM

SMILES | assay | test system | conditions | MIC
CN[C@H](CC(C)C)C(=O)N[C@H]1C(=O)N[C@@H](CC(N)=O)C(=O)N[C@H]2C(=O)N[C@H]3C(=O)N[C@H](C(=O)N[C@H](C(=O)O)c4cc(O)cc(O)c4-c4cc3ccc4O)[C@H](O)c3ccc(c(Cl)c3)Oc3cc2cc(c3O[C@@H]2O[C@H](CO)[C@@H](O)[C@H](O)[C@H]2O[C@H]2C[C@](C)(NCc3ccc(OCc4cn(CC(=O)N[C@H](C(=O)N[C@@H](CCN)C(=O)N[C@H]5CCNC(=O)[C@H]([C@@H](C)O)NC(=O)[C@H](CCN)NC(=O)[C@H](CCN)NC(=O)[C@H](CC(C)C)NC(=O)[C@@H](CC(C)C)NC(=O)[C@H](CCN)NC5=O)[C@@H](C)O)nn4)c(OC)c3)[C@H](O)[C@H](C)O2)Oc2ccc(cc2Cl)[C@H]1O | broth microdilution | BAA-747, cation-adjusted Mueller-Hinton broth | 18 to 20 h, 37 °C, 0.002% polysorbate 80 | 32 µg/mL
CC[C@H]1OC(=O)[C@H](C)[C@@H](OC(=O)Cc2ccc(C(F)(F)F)cc2)[C@H](C)[C@@H](O[C@@H]2O[C@H](C)C[C@H](N(C)C)[C@H]2O)[C@](C)(OC)C[C@@H](C)C(=O)[C@H](C)[C@@H](O)[C@]1(C)O | microbial growth | ATCC19606 |  | > 32 µg/mL
C#CCNC(=O)C1(O/N=C(\C(=O)N[C@@H]2C(=O)N(OS(=O)(=O)O)C2(C)C)c2csc(N)n2)CC1 | agar dilution | 16-16 |  | 128 µg/mL
CCCCCCCC(=O)N[C@@H](CCN)C(=O)N[C@H](C(=O)N[C@@H](CCN)C(=O)N[C@H]1CCNC(=O)[C@H]([C@@H](C)O)NC(=O)[C@H](C)NC(=O)[C@H](CCN)NC(=O)[C@H](CC(C)C)NC(=O)[C@@H](Cc2ccccc2)NC(=O)[C@H](CCN)NC1=O)[C@@H](C)O | broth microdilution | ATCC 19606 | 20 h, 37 °C | > 512 µg/mL
CCCCCCCC(=O)N[C@@H](CCN)C(=O)N[C@H](C(=O)N[C@@H](CN)C(=O)N[C@H]1CCNC(=O)[C@H]([C@@H](C)O)NC(=O)[C@H](CCN)NC(=O)[C@H](CCCN)NC(=O)[C@H]([C@@H](C)O)NC(=O)[C@@H](CC(C)C)NC(=O)[C@H](CCN)NC1=O)[C@@H](C)O |  | ATCC 17978, CAMHB | 20 h, 37 °C | 0.5 µg/mL
CC[C@H]1OC(=O)[C@H](C)[C@@H](OC(=O)Cc2c(F)cccc2F)[C@H](C)[C@@H](O[C@@H]2O[C@H](C)C[C@H](N(C)C)[C@H]2O)[C@](C)(OC)C[C@@H](C)C(=O)[C@H](C)[C@@H](O)[C@]1(C)O | microbial growth | ATCC19606 |  | > 32 µg/mL
CCCCCCCC[N+](C)(C)CCCCOc1cc(OCCCC[N+](C)(C)CCCCCCCC)cc(OCCCC[N+](C)(C)CCCCCCCC)c1.[Br-].[Br-].[Br-] |  | ATCC 17978 |  | 63 µM
CCCCCCCC(=O)N[C@@H](CCN)C(=O)N[C@H](C(=O)N[C@@H](CN)C(=O)N[C@H]1CCNC(=O)[C@H]([C@@H](C)O)NC(=O)[C@H](CCN)NC(=O)[C@H](CCN)NC(=O)[C@H]([C@@H](C)O)NC(=O)[C@@H](CC(C)C)NC(=O)[C@H](CCCN)NC1=O)[C@@H](C)O |  | ATCC 19606, CAMHB | 20 h, 37 °C | > 32 µg/mL
COc1c(NC(=O)c2ccc(NC(=O)c3ccc(NC(=O)[C@H](CC#N)NC(=O)c4ccc(NC(=O)/C(C)=C/c5ccc(O)cc5)cc4)cc3)c(OC)c2O)ccc(C(=O)O)c1O | microbial growth, broth dilution |  |  | 2 µg/mL
CC1(C)[C@H](NC(=O)/C(=N\OCC(=O)N2CCC(C(=O)O)C2)c2nsc(N)n2)C(=O)N1OS(=O)(=O)O (stereo partly shown) | agar dilution | ATCC 19606 |  | > 64 µg/mL
CC[C@H]1OC(=O)[C@H](C)[C@@H](OC(=O)Cc2ccc3c(c2)OCO3)[C@H](C)[C@@H](O[C@@H]2O[C@H](C)C[C@H](N(C)C)[C@H]2O)[C@](C)(OC)C[C@@H](C)C(=O)[C@H](C)[C@@H](O)[C@]1(C)O |  | DSM 30007 |  | 16 µM
CC1(C)[C@H](NC(=O)/C(=N\OC2(C(=O)O)CC2)c2nsc(N)n2)C(=O)N1OS(=O)(=O)O | agar dilution | 16-16 |  | > 64 µg/mL
CCCCCCCC(=O)N[C@@H](CCN)C(=O)N[C@H](C(=O)N[C@@H](CCN)C(=O)N[C@H]1CCNC(=O)[C@H]([C@@H](C)O)NC(=O)[C@H](CCN)NC(=O)[C@H](CCN)NC(=O)[C@H](CC(C)C)NC(=O)[C@@H](Cc2ccccc2)NC(=O)[C@H](CCN)NC1=O)[C@@H](C)O | CLSI broth microdilution | 246-01-C.246, CAMHB | 20 h, 37 °C | 0.25 µg/mL
CC1(C)C(NC(=O)C(=NOCC(=O)N2CC3CCCC3C2C(=O)O)c2csc(N)n2)C(=O)N1OS(=O)(=O)O (stereo not shown) | agar dilution | ATCC 19606 |  | > 64 µg/mL
COc1ccc2ccc(O)c(/C=N/[C@H]3CCCC[C@H]3/N=C/c3cc(F)ccc3O)c2c1 | bacterial growth, broth microdilution | carbapenem-resistant clinical isolate |  | > 40 µM
